# Assay results collected from several papers.
# Each line is one published result; not all experiments were run side by side. ± marks the error that the study gave.
SMILES,test,system,conditions,how to read,endpoint,result
O=S(=O)(Nc1ccc(O)c(C(F)(F)F)c1)c1cc(Cl)cc(Cl)c1O,"colloidal aggregate formation, dynamic light scattering",50 mM potassium phosphate buffer,"200 µM, pH 7.0, 1% DMSO",higher = more aggregation,DLS scattered light intensity,397000 counts/s
CC(C)(C(=O)N1CCOc2c(C#N)cncc2C1)C(F)F,item: vessel puncture site haemorrhage,"human, both sexes","oral, 20 mg twice daily, 14 days, multiple ascending dose",,subjects with TEAE,12.5%
O=C1CCc2ccc(OCCCCN3CCN(c4cccc(Cl)c4Cl)CC3)cc2N1,item: Tremor,"genotyped patients, CYP2D6 poor metabolizers","dose not given, long-acting oral or depot",,adverse event incidence,10%
Cc1nc(O)n2ncc(Br)c2n1,haemolysis,sheep erythrocytes,"1 h, pH 7.5",,HC50,> 128 µg/mL
COc1cc(N)c(Cl)cc1C(=O)NC1CCN(CCCOc2ccc(F)cc2)CC1OC (centres unmarked),,"male Hartley guinea pig, anaesthetized","intravenous infusion, 1 mg/kg, 10 min infusion, post-infusion",,QTc interval,361 ± 0.7 ms
O=C(O)CCC(=O)O.[2H]C([2H])([2H])Oc1cc(C)c2[nH]ccc2c1CN1CC[C@@H](C2CC2)C[C@H]1c1ccc(C(=O)O)cc1,,"human, plasma","50 mg twice daily, day 1, multiple ascending dose, median",,Tmax,4 h
CNC(=O)c1ccc(-c2cnc3ncc(Cc4ccc5ncccc5c4)n3n2)cc1F,,Japanese patients,"oral, 400 mg, any grade",,Agitation dose reduction/interruption,1%
Cc1cc(-c2nccc3c2ccn3CC(=O)Nc2ccc(-c3cnccn3)cn2)ccn1,,human,"5 mg once daily, multiple ascending dose",,subjects with serious TEAE,0%
CCCCCc1ccc(C(=O)Oc2ccc(C#N)c(F)c2)cc1,item: compound,"human pregnant women, male fetuses, maternal serum","dose not given, paired maternal-cord samples, mean",,concentration,0.11 ng/mL
C[C@H](O)c1cc(C(=O)N[C@@H](C)Cn2ccc(-c3ccc(C#N)c(Cl)c3)n2)n[nH]1,,"human, fasted, plasma","oral solution, 300 mg 14C-darolutamide, geometric mean",,AUC(0-tlast),38100 ng·h/mL
CC(C)C(=O)O[C@H]1[C@H](C)OC(=O)[C@@H]1Cc1ccccc1,,light clay soil,"pH 7.3, OC 5.6%",,Freundlich KF,3.3 mL/g
COc1cc(-c2cnc3cc(OCCN4CCOCC4)ccn23)cc2c1C(=O)N(CC(F)(F)F)CC2,LC-MS,"human, plasma","oral, 350 mg once daily, day 7, co-dosed with methotrexate",arithmetic mean,Ctrough,68.1 ng/mL
Cl.[2H]C([2H])([2H])CC(=O)c1cnc(NC(=O)C2CC2)cc1Nc1cccc(-c2ncn(C([2H])([2H])[2H])n2)c1OC,,"human, fasted, multiple dose","oral, 20 mg once daily, liquid formulation, day 7, geometric mean",,Ctrough,13.6 ng/mL
COc1cccc(OC)c1-c1cc(C(=O)NC2(C(=O)O)C3CC4CC(C3)CC2C4)nn1-c1ccc(C(=O)N(C)CCCN(C)CCCN(C)C(=O)CN2CCN(CC(=O)[O-])CCN(CC(=O)[O-])CCN(CC(=O)[O-])CC2)cc1C(C)C.[177Lu+3] (centres unmarked),,"mouse, HT-29 xenograft","4 h post injection, biodistribution",baseline: tumour over brain uptake,tumour-to-brain ratio,62.2
O=C(O)CCCOc1ccc([18F])cc1-c1cc(-c2ccccc2C(F)(F)F)n(-c2ccccc2)n1,gamma counting,"male ddY mice, bone","intravenous, 2.1 MBq, 60 min",,radioactivity uptake,0.74 ± 0.19 SUV
O=C(Nc1cnccc1Cl)N1CCN(Cc2ccc3c(c2)OC(F)(F)O3)CC1,multiple ascending dose,young men,"10 mg, treatment-emergent adverse events",,alanine aminotransferase increased,33.3%
CCn1cc(C(=O)N2CCOCC2)c(=O)c2cc(NC3Cc4ccccc4C3)cnc21,,"human, fed","oral suspension, 2000 mg/day twice daily, day 8, arithmetic mean",,AUC(0-12),24900 ng·h/mL
CCc1cc(C(=O)NC)c2nccc(N3CCc4c(cc(Cn5ccnc5)cc4-c4cn(C)nc4C(F)(F)F)C3=O)c2c1,,Sprague Dawley rat,"oral, 100 mg/kg twice daily, 7 days",baseline: vehicle,kidney weight change,-1.31%
COc1ccc2c(=O)n(C)c(-c3ccccc3)nc2c1,,"male Sprague-Dawley rat, large intestine","oral, 30 mg/kg, 4 h",,tissue concentration,42500 ng/g
C[C@H](CCC(=O)O)[C@H]1CC[C@H]2[C@@H]3[C@H](O)C[C@@H]4C[C@H](O)CC[C@]4(C)[C@H]3CC[C@]12C,,"human, plasma",endogenous baseline diurnal,,daily mean concentration,427 ± 101 nM
O=c1[nH]c2ccc(NS(=O)(=O)c3cc(Cl)cc(Cl)c3O)cc2s1,"colloidal aggregate formation, dynamic light scattering",50 mM potassium phosphate buffer,"200 µM, pH 7.0, 1% DMSO",higher = more aggregation,DLS scattered light intensity,338000 counts/s
CCN1CCN(Cc2ccc(NC(=O)c3ccc(C)c(NC(=O)c4cncc(-c5cccs5)c4)c3)cc2C(F)(F)F)CC1,,"C57BL/6 mice, epithelial lining fluid","intraperitoneal, 20 mg/kg",,AUC(0-t),6190 ng·h/mL
CNCCOC12CC3(C)CC(C)(CC(Cn4ncc(-c5ccc(N6CCc7cccc(C(=O)Nc8nc9ccccc9s8)c7C6)nc5C(=O)O)c4C)(C3)C1)C2,,"beagle dog, male, anaesthetised","intravenous bolus, 0.03 mg/kg, 30 min",baseline: baseline,PR interval change,-6 ms
COc1ncc(-c2nc3c(n2C(C)C)[C@H](c2ccc(Cl)cc2)N(c2cc(Cl)cn(C)c2=O)C3=O)c(OC)n1,LC-MS/MS,"human, plasma","oral, 30 mg, cycle 1 day 8, low-dose arm",,Cmax,169 ng/mL
CNC(=O)c1cccc(-c2ccc(O[C@H]3O[C@H](CO)[C@@H](O)[C@H](O)[C@@H]3O)c(C)c2)c1,,"male Sprague-Dawley rat, plasma","oral, 10 mg/kg, group mean",,terminal half-life,2.85 h
Cc1cc(C)c(CNC(=O)c2cc(Cl)c3c(c2C)O[C@@](C)([C@H]2CC[C@H](N(C)C)CC2)O3)c(=O)[nH]1,,"human NHL patients, plasma","oral, 200 mg/day, 15 day",,Cavg,591 ng/mL
NCCONC(=O)[C@@H]1CC[C@@H]2CN1C(=O)N2OS(=O)(=O)O,item: urinary leukocytes positive,healthy Chinese men,"intravenous, 2 g, treatment-emergent",,adverse event incidence,0%
CN(CCCN1CCN(C(=O)CN2CCN(CC(=O)[O-])CCN(CC(=O)[O-])CCN(CC(=O)[O-])CC2)CC1)c1ccc2nccc(C(=O)NCC(=O)N3CC(F)(F)C[C@H]3C#N)c2c1.[68Ga+3],,"mice, HT-1080.hFAP and HT-1080 wild-type xenografts, heart","iv, 500 pmol, 1 h post injection",,uptake,0.2 %IA/g
COc1cccc2c1OCCC2NS(=O)(=O)c1csnc1C(=O)O (centres unmarked),"colloidal aggregate formation, dynamic light scattering",50 mM potassium phosphate buffer,"200 µM, pH 7.0, 1% DMSO",higher = more aggregation,DLS scattered light intensity,462000 counts/s
C[C@@H]1CCO[C@H]2Cn3cc(C(=O)NCc4ccc(F)cc4F)c(=O)c(O)c3C(=O)N12,"population PK, post-hoc","children, 25 to <30 kg, plasma","oral, 35 mg film-coated tablet, steady state, geometric mean",,AUC(0-24),51000 ng·h/mL
C=CC(=O)N1CCC[C@@H](n2nc(-c3ccc(Oc4ccccc4)cc3)c3c(N)ncnc32)C1,dialysis bag,phosphate buffer,"72 h, pH 7.4, 37 °C",,drug release,36.1 ± 5.59%
CC(C)C[C@H](NC(=O)CNC(=O)c1cc(Cl)ccc1Cl)B(O)O,item: Dysgeusia,human newly diagnosed multiple myeloma,"oral, dose not given, maintenance, grade 3, onset cycle 17 or later",,treatment-emergent adverse events,0%
C/C(O)=C(\C#N)C(=O)Nc1ccc(C(F)(F)F)cc1,,"CD-1 mice female, whole blood","oral, 10 mg/kg leflunomide daily, 24 h, after dose 10",,blood concentration,90.7 ± 13.7 µM
NCc1cc2c(cc1F)C(=O)N(C1CCC(=O)NC1=O)C2 (centres unmarked),,"male Beagle dog, whole blood",added: SSAO/VAP-1 inhibitor,,half-life,> 3 h
COc1cc(Nc2ncc3c(n2)-c2ccc(Cl)cc2C(c2c(F)cccc2OC)=NC3)ccc1C(=O)O,"item: increased AST, grade 3","cancer patients, phase 1/2","oral, dose not given, added: pembrolizumab",,patients with adverse event,4%
Cc1ccc([C@@H]2O[C@H](CO)[C@@H](O)[C@H](O)[C@H]2O)cc1Cc1ccc(-c2ccc(F)cc2)s1,item: inorganic phosphorus,Japanese type 2 diabetes patients,"25 mg, day 1, 24 h urine collection",baseline: baseline,urinary phosphate excretion change,-228 mg
Cc1ccc2ccccc2c1NS(=O)(=O)c1cccc(Cl)c1O,"colloidal aggregate formation, dynamic light scattering",50 mM potassium phosphate buffer,"200 µM, pH 7.0, 1% DMSO",higher = more aggregation,DLS scattered light intensity,1.38e+06 counts/s
CNC(=O)c1ccc(-c2cnc3ncc(Cc4ccc5ncccc5c4)n3n2)cc1F,"item: Constipation, all grades",cancer patients,"oral, dose not given, dose escalation, any causality",,patients with adverse event,16%
O=C(Nc1ccc(OC(F)(F)Cl)cc1)c1cnc(N2CC[C@@H](O)C2)c(-c2ccn[nH]2)c1,,human patients,"oral, dose not given",baseline: records,amylase increase incidence,2.4%
Cc1ccc(C(=O)N(CCCN)C(c2nc3snc(C)c3c(=O)n2Cc2ccccc2)C(C)C)cc1 (centres unmarked),stomatitis grade ≥3 (CTCAE),human patients,"intravenous, 16 mg/day",,patients with adverse event,14%
O=C(Nc1nc2cccc(-c3ccc(CN4CCS(=O)(=O)CC4)cc3)n2n1)C1CC1,item: cystitis,human rheumatoid arthritis patients,"oral, 150 mg once daily, 4 weeks, regardless of relatedness",,treatment-emergent adverse events,0%
CCOc1ccc2nc(NC(=O)c3cc(=O)c4ccc(C)cc4o3)sc2c1,haemolysis,sheep erythrocytes,"1 h, pH 7.5",,HC50,> 128 µg/mL
COc1c(N2C[C@@H]3CCCN[C@@H]3C2)c(F)cc2c(=O)c(C(=O)O)cn(C3CC3)c12,,"male Hartley guinea pig, anaesthetized","intravenous, 10 mg/kg, baseline before infusion",,QTc interval,304 ± 0.6 ms
COc1cc(N2CCC(N3CCN(C)CC3)CC2)ccc1Nc1ncc(Cl)c(Nc2ccccc2P(C)(C)=O)n1,,"healthy subjects, plasma","oral, 90 mg, single dose, geometric mean",,AUC(0-120 h),6740 ng·h/mL
CCc1nc(C(N)=O)c(Nc2ccc(N3CCC(N4CCN(C)CC4)CC3)c(OC)c2)nc1NC1CCOCC1,,mouse plasma,"15 ng/mL, 6 h, 25 °C",,bench-top stability accuracy,94.3%
COc1ccc(NC(=O)N2CCCCN3[C@H](COCCC(=O)O)[C@H](c4ccc(C#Cc5ccccc5)cc4)[C@@H]3C2)cc1,,CD-1 mouse,"intravenous, dose not given",,Vss,1 L/kg
COc1ccc2c(c1)CN(C(=O)CCN1CCC(Cc3ccccc3)CC1)CC[S@@+]2[O-],,human plasma,1000 ng/mL,,fu,0.133
CNCc1ccc(-c2[nH]c3cc(F)cc4c3c2CCNC4=O)cc1,,patients,"oral, 600 mg twice daily, grade 2",,asthenia/fatigue incidence,23.1%
O=C(O)c1occc1S(=O)(=O)NCc1cc2cc(F)ccc2[nH]1,"colloidal aggregate formation, dynamic light scattering",50 mM potassium phosphate buffer,"200 µM, pH 7.0, 1% DMSO",higher = more aggregation,DLS scattered light intensity,303000 counts/s
CCN1/C(=C/C(C)=O)Sc2ccc(F)cc21,,cynomolgus monkey,"oral, 30 mg/kg, 24 h post-dose",baseline: pre-dose,diastolic blood pressure change,99 ± 3.9%
CCO[C@H]1CCN(Cc2c(OC)cc(C)c3[nH]ccc23)[C@H](c2ccc(C(=O)O)cc2)C1,,"PNH patients, active haemolysis","oral, 25 mg, 4 weeks, treatment",,incidence of flatulence,0%
CO[C@@H]1[C@H](O)[C@@H](CO)O[C@H]1n1c([N+](=O)[O-])nc2c(=O)[nH]c(N)nc21,"depurination, RP-HPLC",citrate-phosphate buffer 0.5 mM,"5440 min, pH 7, 37 °C",,nucleoside remaining fraction,0.423
CNC(=O)c1ccc(-c2cnc3ncc(Cc4ccc5ncccc5c4)n3n2)cc1F,ultrafiltration,"human normal hepatic function, plasma","oral, 200 mg, 3 h post-dose, geometric mean",,fraction unbound,0.029
Cc1cc(Cl)c(O)c(NS(=O)(=O)c2cc(Cl)cc(Cl)c2O)c1F,"colloidal aggregate formation, dynamic light scattering",50 mM potassium phosphate buffer,"200 µM, pH 7.0, 1% DMSO",higher = more aggregation,DLS scattered light intensity,591000 counts/s
CO/N=C(\C(=O)N[C@@H]1C(=O)N2C(C(=O)O)=C(COC(C)=O)CS[C@H]12)c1csc(N)n1,,human whole blood,"concentration not given, 48 h, 4 °C",,deviation from nominal concentration,-2.6%
CCOc1c([C@H](C)n2nc(C)c3c(N)ncnc32)cc(Cl)c(F)c1[C@@H]1CNC(=O)C1,,"patients with DLBCL, plasma","oral, 20 mg, day 15, monotherapy",,half-life,9.5 ± 1 h
